# Assay results pooled from the literature.
# Values joined by “and” are separate records of one study, mostly repeats; a detail may differ. ± gives the spread as reported.
# GBA2: Beta-glucosidase (GBA2, Homo sapiens, UniProt Q9HCG7)
# UniProt Q9HCG7, sequence (whole entry, looked up): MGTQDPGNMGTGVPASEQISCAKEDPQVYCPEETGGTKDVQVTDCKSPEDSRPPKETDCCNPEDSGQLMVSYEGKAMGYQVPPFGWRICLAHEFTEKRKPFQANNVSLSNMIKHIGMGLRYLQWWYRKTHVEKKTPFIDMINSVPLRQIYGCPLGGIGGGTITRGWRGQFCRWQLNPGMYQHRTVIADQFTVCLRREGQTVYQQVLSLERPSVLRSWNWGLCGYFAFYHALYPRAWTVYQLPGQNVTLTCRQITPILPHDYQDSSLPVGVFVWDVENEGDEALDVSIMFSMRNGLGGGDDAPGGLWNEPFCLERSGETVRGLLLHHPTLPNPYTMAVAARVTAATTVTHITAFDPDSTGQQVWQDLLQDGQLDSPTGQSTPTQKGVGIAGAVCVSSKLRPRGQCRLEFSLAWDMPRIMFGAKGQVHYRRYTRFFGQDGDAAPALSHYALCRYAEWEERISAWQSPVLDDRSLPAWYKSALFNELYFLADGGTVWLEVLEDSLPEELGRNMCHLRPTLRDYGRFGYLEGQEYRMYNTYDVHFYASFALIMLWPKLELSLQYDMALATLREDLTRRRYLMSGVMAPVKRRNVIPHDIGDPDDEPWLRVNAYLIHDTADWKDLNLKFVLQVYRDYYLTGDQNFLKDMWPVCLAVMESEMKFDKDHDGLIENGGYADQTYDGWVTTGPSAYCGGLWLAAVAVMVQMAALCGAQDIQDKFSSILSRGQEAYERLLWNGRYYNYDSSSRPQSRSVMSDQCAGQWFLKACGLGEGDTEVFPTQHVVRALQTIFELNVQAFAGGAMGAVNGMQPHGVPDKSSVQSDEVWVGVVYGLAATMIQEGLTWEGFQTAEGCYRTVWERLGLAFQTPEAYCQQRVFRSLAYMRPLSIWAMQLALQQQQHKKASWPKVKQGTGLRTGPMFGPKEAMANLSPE
Compound,target or system,test,test system,setting,scale,quantity,value
C[C@H](OCCCCCN1C[C@H](O)[C@@H](O)[C@H](O)[C@H]1CO)c1ccc(-c2ccccc2)cc1,GBA2,"inhibitor, 4MU-β-D-glucopyranoside",HEK293T homogenates overexpressing GBA2,,baseline: GCS IC50 over GBA2 IC50,selectivity ratio,23
O=[N+]([O-])c1ccc(/C=N/Nc2nnc(N/N=C/c3ccc([N+](=O)[O-])o3)c3ccccc23)o1,,haemolysis,human,"10 mM, 45 min",,haemolysis,23.4%
C=CC(=O)Nc1cc(Nc2nccc(-c3cn(C)c4ccccc34)n2)c(OC)cc1N(C)CCNC,,storage stability,human plasma,"2 h, -80 °C, MQC level",,recovery,101%
C/C(N)=N/C(=N\S(=O)(=O)c1ccc(C(F)(F)F)cc1)N1C[C@H](c2ccccc2)C(c2ccc(Cl)cc2)=N1,,,"beagle dog, plasma","oral, 12 mg/kg",,bioavailability,40%
CCN(CC)c1ccc2c(c1)O[B-]1(c3ccccc3OC)OC(=O)C(c3ccccc3)=N[N+]1=C2 (centres unmarked),,,toluene,,,molar absorption coefficient,59000 M⁻¹ cm⁻¹
O=C(Nc1cnccc1-c1ccc([18F])cc1)c1ccnc(NC(=O)C2CC2)c1,,ex vivo gamma counting,"GSK-3β transgenic mice, late-stage, small intestine","intravenous, 120 min, mean, P-gp inhibitor pretreatment, together with: tariquidar 15 mg/kg iv",,SUV,4.54
CC(C)[C@@H]1NC(=O)[C@@H](CCCNC(=N)N)NC(=O)[C@H]([C@@H](C)O)NC(=O)[C@@H](CCCN)NC(=O)[C@H](Cc2cccc(F)c2)NC(=O)[C@@H](Cc2ccccc2)NC1=O,,haemolysis,human,100 µM,,haemolysis,< 10%
COc1cccc(OC)c1-c1cc(C(=O)NC2(C(=O)O)C3CC4CC(C3)CC2C4)nn1-c1ccc(C(=O)N(C)CCOCCN(C)C(=O)[C@H](CCCCNC(=O)[C@H](CC(C)C)NC(=O)C2OC2C(=O)O)NC(=O)CN2CCN(CC(=O)[O-])CCN(CC(=O)[O-])CCN(CC(=O)[O-])CC2)cc1C(C)C.[177Lu+3] (mixture of isomers),,,"mouse, HT-29 xenograft","168 h post injection, biodistribution",baseline: tumour over brain uptake,tumour-to-brain ratio,6.22
CCCCN1C(=O)c2cccc3c(NCCCCCN4CCOCC4)ccc(c23)C1=O,,,methanol,,,molar extinction coefficient,5560 M⁻¹ cm⁻¹
Cc1cc(-c2ccc(C(=O)[C@@H]3CCCC[C@H]3C(=O)Nc3cnn4c3C(=O)NCC4)cc2)[nH]n1,,,"human, urine","oral, 200 mg, 96-120 h",baseline: dose,radioactivity recovery per interval,0.01% and 0.02% and 0.03% and 0.04%
CCC(=O)N(C)c1ccc(Cl)c(Cl)c1,,,female C57BL/6 mice,"intravenous, 2 mg/kg, 0.083 h",,plasma concentration,771 ng/mL
CCCC[C@H](OC(C)=O)c1ccccc1C(=O)O,,,"beagle dogs, both sexes, whole blood","intravenous, 0.5 mg/kg single dose",,AUC(0-inf),409 ± 307 ng·h/mL
C=C[C@]1(C)C[C@@H](OC(=O)CSc2ccc(NC(=O)c3ccco3)cc2)[C@]2(C)[C@H](C)CC[C@]3(CCC(=O)[C@H]32)[C@@H](C)[C@@H]1O,,,"M. gallisepticum-infected chickens, plasma","intramuscular, 40 mg/kg single dose",,Tmax,23.4 min
CCCCN1C(=O)c2cccc3c(NCCN4CCOCC4)ccc(c23)C1=O,,,dioxane,,,fluorescence lifetime,9.7 ns
COc1ccc2c(c1)CCn1c[n+]3c(c1-2)-c1ccc(OC)cc1CC3,,,"female NSG mice, blood","6 mg/kg, day 14, 5 days per week",,Lymphocytes,8.72 ± 12.4%
Cc1nn(-c2nc3c(F)cc(F)cc3s2)c(O)c1C(c1ccc(C(F)(F)F)cc1)c1c(C)nn(-c2nc3c(F)cc(F)cc3s2)c1O,,,"ICR mouse, plasma","oral, 50 mg/kg",,AUC(all),361000 ng·h/mL and 353000 ng·h/mL and 381000 ng·h/mL
CC(C)C[C@H](NC(=O)[C@H](CCCN)NC(=O)CNC(=O)[C@@H](NC(=O)[C@H](C)NC(=O)[C@@H]1CSCSC[C@H](NC(=O)CC[C@H](N)C(=O)O)C(=O)N[C@@H](CC(N)=O)C(=O)N[C@@H]([C@@H](C)O)C(=O)N[C@@H](C)C(=O)N[C@@H]([C@@H](C)O)C(=O)N1)[C@@H](C)O)C(=O)N[C@@H](C)C(=O)N[C@@H](CCC(=O)O)C(=O)N[C@@](C)(Cc1ccccc1)C(=O)N[C@@H](CC(C)C)C(=O)N[C@H](C(=O)N[C@@H](CCCNC(=N)N)C(=O)N[C@@H](CO)C(=O)N[C@@H](CO)C(=O)N[C@@H](CC(N)=O)C(=O)N(C)[C@@H](CC(N)=O)C(=O)N[C@@H](Cc1ccccc1)C(=O)NCC(=O)N1CCC[C@H]1C(=O)N[C@@H](CCCCNC(=O)CC[C@H](NC(=O)CC[C@H](NC(=O)CCCCCCCCCCCCCCCCCCC(=O)O)C(=O)O)C(=O)O)C(=O)N[C@@H](CC(C)C)C(=O)N1CCC[C@H]1C(=O)N1CCC[C@H]1C(=O)N[C@H](C(=O)N[C@@H](CCC(=O)O)C(=O)N[C@H](C(=O)NCC(=O)N[C@@H](CO)C(=O)N[C@@H](CC(N)=O)C(=O)N[C@H](C(=O)N[C@@H](Cc1ccc(O)cc1)C(N)=O)[C@@H](C)O)C(C)C)[C@@H](C)O)C(C)C,,,"healthy human, plasma","subcutaneous, 0.4 mg single dose, geometric LS mean",,AUC(0-tlast),21400 ng·h/mL
C=CC(=O)Nc1cc(Nc2nccc(-c3c[nH]c4ccccc34)n2)c(OC)cc1N(C)CCN(C)C,,storage stability,human plasma,"24 h, on ice, medium QC level",,recovery,78.5%
CC[C@H](C)[C@@H]1NC(=O)[C@H](Cc2ccc(O)cc2)NC(=O)CCCSC[C@@H](C(=O)N(CC(=O)N[C@@H](CC(C)C)C(=O)NCC(N)=O)Cc2ccc(F)cc2)NC(=O)[C@H](CC(N)=O)NC(=O)[C@H](CCC(N)=O)NC1=O,,,"healthy human, plasma","intranasal, 200 µg every 3 h, after first dose",,AUC(0-t),0.085 ng·h/mL
CC(C)(C)CCOCCCCCN1C[C@H](O)[C@@H](O)[C@H](O)[C@H]1CO,GBA2,"inhibitor, 4MU-β-D-glucopyranoside",HEK293T homogenates overexpressing GBA2,,baseline: GCS IC50 over GBA2 IC50,selectivity ratio,152
C[C@@H](Nc1c(-c2c(F)cc(C#N)cc2F)c(Cl)nc2ncnn12)C(C)(C)C,,ELISA,"5XFAD transgenic mice, cortex","intraperitoneal, 1 mg/kg twice weekly, 4 weeks",,insoluble Aβ42 level,decreased
CCC(C(=O)Nc1ccc(C(N)=O)c(F)c1)n1cc(OC)c(-c2cc(Cl)ccc2-n2cc(C(F)(F)F)nn2)cc1=O (centres unmarked),,,healthy male humans,"50 mg, maximum intensity, together with: omeprazole",,mild adverse events,28.6%
O=C(NS(=O)(=O)c1cccs1)c1cc2ccccc2n1Cc1ccc(Br)c2ccccc12,,,"Sprague-Dawley rat, male","oral, dose not given, 2 h",,plasma concentration,2250 ng/mL
COC1CN([C@H]2CC[C@H]([C@@]3(C)Oc4c(Cl)cc(C(=O)NCc5c(SC)cc(C)[nH]c5=O)c(C)c4O3)CC2)C1,,"RNA-seq, refers to: PFKFB2","human, whole blood","dose not given, 24 h",baseline: pretreatment baseline,log2 fold change,1.31
CCCCN1C(=O)c2cccc3c(NCCCN4CCOCC4)ccc(c23)C1=O,,,Toluene,,,molar extinction coefficient,5320 M⁻¹ cm⁻¹
CN(O)C(=O)CCC(=O)NCCCN(CCCCN(CCCNC(=O)CCC(=O)N(C)O)C(=O)CCC(=O)N(C)O)C(=O)CCC(=O)N(C)O.[89Zr],,,0.9 % NaCl saline,"3 days, pH 4.5, 37 °C",,intact compound,99.9 ± 0.1%
COCC1CN(C2CCN(c3cc(OC)c(Nc4ncc(Br)c(Nc5ccc6c(c5P(C)(C)=O)OCCO6)n4)cc3C)CC2)C1,,,"EGFR-mutant NSCLC patients, plasma","oral, 10 mg single dose, median",,Tmax,120 min
CC(C)[C@H](NC(=O)[C@H](Cc1c[nH]c2ccccc12)NC(=O)[C@H](CCCNC(=N)N)NC(=O)[C@H](CCCNC(=N)N)NC(=O)[C@@H](NC(=O)[C@@H](NC(=O)[C@H](CCCNC(=N)N)NC(=O)[C@@H](NC(=O)[C@@H](NC(=O)[C@H](CCCNC(=N)N)NC(=O)[C@H](CCCNC(=N)N)NC(=O)[C@@H](NC(=O)[C@H](Cc1c[nH]c2ccccc12)NC(=O)[C@H](CCCNC(=N)N)NC(=O)[C@H](CCCNC(=N)N)NC(=O)[C@@H](NC(=O)[C@H](CCCNC(=N)N)NC(=O)[C@H](CCCNC(=N)N)NC(=O)[C@@H](NC(=O)[C@H](Cc1c[nH]c2ccccc12)NC(=O)[C@H](CCCNC(=N)N)NC(=O)[C@@H](N)CCCNC(=N)N)C(C)C)C(C)C)C(C)C)C(C)C)C(C)C)C(C)C)C(C)C)C(=O)N[C@@H](CCCNC(=N)N)C(=O)N[C@@H](CCCNC(=N)N)C(=O)O,,dipstick,"CD1 mouse, urine","intravenous, 15 mg/kg, 6 h, [14C]-labelled compound",,protein,30 mg/dL
CCC1C=C(C)C(O)C(C)CC(OC)C2OC(O)(C(=O)C(=O)N3CCCCC3C(=O)OC(C(C)=CC3CCC(O)C(OC)C3)C(C)C(O)CC1=O)C(C)CC2OC (centres unmarked),,,mouse C57BL/6,"topical, dose not given, 24 h",,blood concentration,not detected
CCCCN1C(=O)c2cccc3c(NCCCCCCN4CCOCC4)ccc(c23)C1=O,,,dichloromethane,,,molar extinction coefficient,10600 M⁻¹ cm⁻¹
[123I]c1ccc2nc(-c3ccc(-n4ccnn4)nc3)cn2c1,,,"male Wistar rat, kidney","intravenous, 4 MBq, 6 h",,tracer uptake,0.111 %ID/g
CN([O-])C(=O)CN1CCN(CC(=O)N(C)[O-])CCN(Cc2ccccn2)CC1.[89Zr+4],,,"mouse, pancreas","intravenous, 4 h",,tracer uptake,0.65 %ID/g
CC[C@H](C)[C@H](NC(=O)[C@H](Cc1ccc(O)cc1)NC(=O)[C@@H](NC(=O)[C@H](CCCNC(=N)N)NC(=O)[C@@H](N)CC(=O)O)C(C)C)C(=O)N[C@@H](Cc1c[nH]cn1)C(=O)N1CCC[C@H]1C(=O)O,,LC-MS/MS,"Sprague-Dawley rats, plasma","subcutaneous, 10 mg/kg/day, day 27",,elimination rate constant,0.043 min⁻¹
CCCCN1C(=O)c2cccc3c(NCCCCCCCCCCN4CCOCC4)ccc(c23)C1=O,,,DMF,,,molar extinction coefficient,13100 M⁻¹ cm⁻¹
C=C(NC(=O)c1csc(-c2nc3c(cc2O)-c2nc(cs2)C(=O)NC(C(C)O)C(=O)NC(=C(C)OC)c2nc(cs2)C(=O)NC2c4nc(cs4)C(=O)NC(COC(=O)c4c5c6c(cccc6n4O)COC(=O)C(OC4CC(C)(O)C(N(C)C)C(C)O4)C2OC5)c2nc-3cs2)n1)C(N)=O (centres unmarked),,,"ICR mice, Streptococcus pneumoniae ATCC 49169 infected, immunocompromised, blood","intravenous, 2 mg/kg/day once daily",,AUC(0-t),51.6 ng·h/mL

# Excerpt of the above:
Compound,target or system,test,test system,setting,scale,quantity,value
CCC(=O)N(C)c1ccc(Cl)c(Cl)c1,,,female C57BL/6 mice,"intravenous, 2 mg/kg, 0.083 h",,plasma concentration,771 ng/mL
CCCC[C@H](OC(C)=O)c1ccccc1C(=O)O,,,"beagle dogs, both sexes, whole blood","intravenous, 0.5 mg/kg single dose",,AUC(0-inf),409 ± 307 ng·h/mL
C=C[C@]1(C)C[C@@H](OC(=O)CSc2ccc(NC(=O)c3ccco3)cc2)[C@]2(C)[C@H](C)CC[C@]3(CCC(=O)[C@H]32)[C@@H](C)[C@@H]1O,,,"M. gallisepticum-infected chickens, plasma","intramuscular, 40 mg/kg single dose",,Tmax,23.4 min
CCCCN1C(=O)c2cccc3c(NCCN4CCOCC4)ccc(c23)C1=O,,,dioxane,,,fluorescence lifetime,9.7 ns
